Results collected from several papers.
Protocols differ between the studies behind these lines. ± gives the spread as reported.

Structure (SMILES)	cell line	assay	conditions	CC50 [µM]
Cc1ccc(/C=N/N=C/c2ccc([N+](=O)[O-])s2)cc1	MDBK	CCK-8	72 h	> 366
C#CCN1CCc2c(n(C(=C)C(=O)OC)c3ccccc23)C(C(=O)OC)C1 (centres unmarked)	HePAD38	cell growth or viability, MTS	14 days	12.7
O=C(CC12CC3CC(CC(C3)C1)C2)NCCOCCOCCOCC(=O)NC1CCN(S(=O)(=O)c2cc(C(=O)Nc3cc(F)c(F)c(F)c3)ccc2F)CC1	HePAD38	cell growth or viability		16.6
C#CCN1CCc2c3n(c4ccccc24)C(=O)C(=C)C3(C(=O)OC)C1 (centres unmarked)	HePAD38	cell growth or viability, MTS	14 days	13.7
COc1ccc(-c2oc3ccc(-c4cc(OC)c(OC)c(OC)c4)cc3c2C#CC2(O)CCCCC2)cc1	Huh-7.5.1			> 100
O=[N+]([O-])c1ccc(/C=N/N=C/c2ccc(Br)cc2)s1	MDBK	CCK-8	72 h	> 296
CCOC(=O)C(CC)NC(=O)CN1C(=O)S/C(=C\c2ccc(OC)cc2)C1=O (centres unmarked)	MDBK	cell growth or viability, CCK-8	72 h	> 230
O=c1ccn([C@@H]2O[C@H](CO)[C@@H](O)[C@H]2F)c(=O)[nH]1	CAKI-1	sulforhodamine B	11 days, galactose medium	> 250
CCCCCOC(=O)C12CCC(C)C(C)C1C1=CCC3C4(C)CCC(OC5OC(CO)C(OC6OC(C)C(O)C(O)C6O)C(O)C5OC5OC(C)C(O)C(O)C5O)C(C)(C)C4CCC3(C)C1(C)CC2 (centres unmarked)	MARC145	cell growth or viability, MTT	48 h	81.3
COc1ccc(-c2oc3ccc(-c4cccnc4OC)cc3c2C#CC2(O)CCCCC2)cc1	Huh-7.5.1			> 100
O=[N+]([O-])c1ccc(/C=N/N=C/c2ccc(F)cc2)s1	MDBK	CCK-8	72 h	88 ± 66.8
COc1ccc(-c2oc3ccc(-c4cc(OC)c(OC)c(OC)c4)cc3c2C#CC(C)(C)O)cc1	Huh-7.5.1			86.1
COC(=O)C1NC(c2ccc[n+](C)c2)C23c4c5c6c7c8c9c(c%10c%11c2c2c4c4c%12c5c5c6c6c8c8c%13c9c9c%10c%10c%11c%11c2c2c4c4c%12c%12c5c5c6c8c6c8c%13c9c9c%10c%10c%11c2c2c4c4c%12c5c6c5c8c9c%10c2c45)C713 (centres unmarked)	DG-75	cell growth or viability	24 h	18.8
OC[C@H]1O[C@@H](n2cnc3c(O)ncnc32)[C@H](F)[C@@H]1O	CAKI-1	sulforhodamine B	11 days, galactose medium	29
Cc1[nH]c2ccccc2c1CC(=O)N[C@@H](Cc1ccccc1)C(=O)N(C)c1ccccc1	TZM-GFP	XTT	72 h	76 ± 9
CCOC(=O)CNC(=O)CN1C(=O)S/C(=C\c2ccc(C)cc2)C1=O	MDBK	cell growth or viability, CCK-8	72 h	112
CCCCCCC(CC=CCCCCCCCC(=O)OCCOCn1cnc2c(=O)[nH]c(N)nc21)OC(=O)CCCCC1SCC2NC(=O)NC21 (centres unmarked)	Akata	cytotoxicity		> 60
O=[N+]([O-])c1ccc(/C=N/N=C/c2ccc(O)cc2)s1	MDBK	CCK-8	72 h	9.26 ± 2.36

Structure (SMILES)	cell line	assay	conditions	CC50 [µM]
O=C(CC12CC3CC(CC(C3)C1)C2)NCCOCC(=O)NC1CCN(S(=O)(=O)c2cc(C(=O)Nc3cc(F)c(F)c(F)c3)ccc2F)CC1	HePAD38	cell growth or viability		28.8
O=[N+]([O-])c1ccc(/C=N/N=C/c2ccc(F)cc2)o1	MDBK	CCK-8	72 h	33.9 ± 22.2
O=C(CC12CC3CC(CC(C3)C1)C2)NC12CCC(C(=O)NC3CCN(S(=O)(=O)c4cc(C(=O)Nc5cc(F)c(F)c(F)c5)ccc4F)CC3)(CC1)CC2	HePAD38	cell growth or viability		60
Nc1ccn([C@@H]2O[C@H](CO)[C@@H](O)[C@H]2F)c(=O)n1	CAKI-1	sulforhodamine B	11 days, galactose medium	> 250
O=C(Nc1cc(F)c(F)c(F)c1)c1ccc(F)c(S(=O)(=O)N2CCC(NC(=O)C3CCC4(CC3)CCN(C(=O)CC35CC6CC(CC(C6)C3)C5)CC4)CC2)c1	HePAD38	cell growth or viability		> 60
C[C@H]1[C@H](C)CC[C@]2(CO)CC[C@]3(C)C(=CC[C@@H]4[C@@]5(C)CCCNC(C)(C)[C@@H]5CC[C@]43C)[C@H]12	HFF primary foreskin fibroblasts	cell viability, CellTiter-Glo		16.1
O=[N+]([O-])c1ccc(/C=N/N=C/c2ccc(OCc3ccccc3)cc2)o1	MDBK	CCK-8	72 h	> 286
O=C(CC12CC3CC(CC(C3)C1)C2)NC1CCN(S(=O)(=O)c2cc(C(=O)Nc3cc(F)c(F)c(F)c3)ccc2F)CC1	HePAD38	cell growth or viability		7.7
CCC(NC(=O)CN1C(=O)N/C(=C\c2ccc(C)cc2)C1=O)C(=O)OC (centres unmarked)	MDBK	cell growth or viability, CCK-8	72 h	63.9
C#CCN1CCC23C(=C(C(=O)OC)CC(C(=O)OC)C12)Nc1ccccc13 (centres unmarked)	HePAD38	cell growth or viability, MTS	14 days	> 100
O=[N+]([O-])c1ccc(/C=N/N=C/c2ccc(OCc3ccccc3)cc2)s1	MDBK	CCK-8	72 h	> 274
C#CCN1CCC2(C=CC(=O)OC)C(=C(C(=O)OC)C1)Nc1ccccc12 (centres unmarked)	HePAD38	cell growth or viability, MTS	14 days	> 100
CCOC(=O)C1NC(c2ccc[n+](C)c2)C23c4c5c6c7c8c9c(c%10c%11c2c2c4c4c%12c5c5c6c6c8c8c%13c9c9c%10c%10c%11c%11c2c2c4c4c%12c%12c5c5c6c8c6c8c%13c9c9c%10c%10c%11c2c2c4c4c%12c5c6c5c8c9c%10c2c45)C713 (centres unmarked)	DG-75	cell growth or viability	24 h	> 50
Nc1ncnc2c1ncn2[C@@H]1O[C@H](CO)[C@@H](O)[C@H]1F	CAKI-1	cell growth or viability, SRB	11 days	69
C=Cc1cn([C@@H]2O[C@H](CO)C[C@H]2O)c2ncnc(N)c12	MRC-5 SV2 fibroblasts	resazurin	72 h, 5% fetal bovine serum	25.6
O=[N+]([O-])c1ccc(/C=N/N=C/c2ccc(O)cc2)o1	MDBK	CCK-8	72 h	18.4 ± 2.51
CCOC(=O)C(NC(=O)CN1C(=O)/C(=C/c2ccc3c(c2)OCO3)SC1=S)C(C)C (centres unmarked)	MDBK	cell growth or viability, CCK-8	72 h	> 276

For quick reference, copied from above:
Structure (SMILES)	cell line	assay	conditions	CC50 [µM]
COc1ccc(-c2oc3ccc(-c4cc(OC)c(OC)c(OC)c4)cc3c2C#CC2(O)CCCCC2)cc1	Huh-7.5.1			> 100
O=[N+]([O-])c1ccc(/C=N/N=C/c2ccc(Br)cc2)s1	MDBK	CCK-8	72 h	> 296
CCOC(=O)C(CC)NC(=O)CN1C(=O)S/C(=C\c2ccc(OC)cc2)C1=O (centres unmarked)	MDBK	cell growth or viability, CCK-8	72 h	> 230
